# Published values pooled from the literature.
# Protocols differ between the studies behind these lines. ± gives the spread as reported.
# Cell line: A2780
SMILES,assay,conditions,how to read,endpoint,result
COc1ccc(CNC[C@](O)(COCc2ccc(F)cc2)[C@@H]2CC[C@@H](C)C[C@H]2OCc2ccc(F)cc2)cc1,"cell growth, inhibitor, MTT",72 h,,IC50,1.52 µM
Nc1ccn([C@@H]2O[C@H](CO)[C@@H](O)C2(F)F)c(=O)n1,"cell proliferation, CCK-8",4 d,reference: untreated,ED50,0.0005 ± 2e-05 µM
COc1ccc(CNC[C@](O)(COCc2ccc(OC)cc2)[C@@H]2CC[C@@H](C)C[C@H]2OCc2ccc(OC)cc2)cc1,"cell growth, inhibitor, MTT",72 h,,IC50,1.33 µM
O=C(/C=C/C=C/C=C/C1CCCCC1)NC1=C[C@@](O)(/C=C/C=C/C=C/C(=O)NC2=C(O)CCC2=O)[C@@H]2O[C@@H]2C1=O,"cell growth, CellTiter-Glo",78 h,,GI50,8.06 µM
COc1cccc(CNC[C@@](C)(O)[C@@H]2CC[C@@H](C)C[C@H]2OCc2ccccc2)c1,"cell growth, inhibitor, MTT",72 h,,IC50,12.5 µM
[Fe+2].c1cc[cH-]c1.c1cc[cH-]c1,"viability, MTT",96 h,,IC50,> 100 µM
C[C@@H]1CC[C@@H]([C@](O)(CNCc2ccccc2)COCc2ccccc2)[C@H](OCc2ccccc2)C1,"cell growth, inhibitor, MTT",72 h,,IC50,4.06 µM
CCn1cc(-c2cc(Cn3ccoc3=N)cc3c2CCN([C@@H](C)c2cc(OC)ccn2)C3=O)c(C(F)(F)F)n1,"cell growth, inhibitor",120 h,,EC50,0.195 µM
COc1cccc2c1C(=O)c1c(O)c3c(c(O)c1C2=O)C[C@@](O)(C(=O)CO)C[C@@H]3O[C@H]1C[C@H](N)[C@H](O)[C@H](C)O1,WST-1,"concentration not given, 72 h, highest tested concentration",,maximal cytotoxicity,93.3%
COc1cnc2cccc(N3CCc4c(cc(Cn5ccnc5C)cc4-c4cn(C)nc4C(F)(F)F)C3=O)c2c1,"cell growth, inhibitor",120 h,,EC50,0.34 µM
CCNNC(=O)c1ccc(CN(CC(=O)NCc2ccccc2)C(=O)c2ccc(N(C)C)cc2)cc1,"flow cytometry, item: subG1 nuclei",concentration not given,,apoptotic cells,~60%
Cc1[nH]c2ccccc2c1CCNCc1ccc(/C=C/C(=O)NO)cc1,annexin V/PI flow cytometry,"concentration not given, 48 h",reference: control subtracted,early apoptotic cells,8.4 ± 1.6%

# A few entries again:
SMILES,assay,conditions,how to read,endpoint,result
COc1cccc(CNC[C@@](C)(O)[C@@H]2CC[C@@H](C)C[C@H]2OCc2ccccc2)c1,"cell growth, inhibitor, MTT",72 h,,IC50,12.5 µM
